Published values pooled from the literature.
Each line is one published result; not all experiments were run side by side.
SRC: Proto-oncogene tyrosine-protein kinase Src (SRC, Homo sapiens, UniProt P12931)

Compound	target	assay	system	conditions	scale	endpoint	result
Cc1cccc(O[C@H]2CCC[C@@H](C(C)CNCc3ccncc3)C2)c1 (relative stereo)	SRC	enzyme activity, inhibitor		10 µM		inhibition	-10%
CC(=O)N1c2ccc(-c3ccc(CNC(=O)c4cn5cc(-c6cnc(N)nc6)nc(N6CCOCC6)c5n4)cc3)cc2CC[C@@H]1C	SRC	binding, competition with immobilised ligand		10 µM		remaining binding	59%
O=C=[N][Ru-4]123([n]4c5ccc(O)cc5c5c6c(c7cc(F)c[n+]1c7c54)C(=O)NC6=O)[S+]1CC[S+]2CC[S+]3CC1 (centres unmarked)	Proto-oncogene tyrosine-protein kinase Src (SRC, Homo sapiens, UniProt P12931, T341M)	enzyme activity		100 nM, human enzyme, added: 10 µM ATP	reference: untreated	remaining activity	94%
Nc1nc(Nc2ccccc2)sc1C(=O)c1ccccc1	SRC	enzyme activity, inhibitor		10 µM		remaining activity	42%
C=CC(=O)N1Cc2nc(-c3cc(-c4cc(Cl)cnc4Cl)c(F)cc3F)n(-c3ccncn3)c2C1	SRC	cell-free assay, inhibitor		1 µM		inhibition	-4.7%
COc1cc(Nc2nc(C)cc(-c3cnn4nc(OC)ccc34)n2)cc(C(F)(F)F)c1	SRC	binding, competition with immobilised ligand		1 µM		remaining binding	100%
COc1cc(OC)c(F)c(/C=C/c2cnc3ccn(S(=O)(=O)c4cn(CCF)cn4)c3n2)c1F	SRC			1000 nM		inhibition	2.4%
CCn1cc(C(=O)O)c(=O)c2c(N)c(F)c(NC3CCCCC3)cc21	SRC	kinase activity		0.1 µM, added: ATP at Km		inhibition	-1.1%
CN1CCN(Cc2ccc(NC(=O)c3cccc(C#Cc4cnc(N)c5ncccc45)c3)cc2C(F)(F)F)CC1	SRC	cell-free assay, competition with immobilised ligand		0.5 µM		remaining binding	0.3%
O=c1c(-c2ccc(Cl)c(CN3CCOCC3)c2)coc2cc(O)ccc12	SRC	enzyme activity, inhibitor		1 µM		remaining activity	97%
CCN1CCN(Cc2ccc(C(=O)Nc3ccc(C)c(NCc4cnc5[nH]ccc5c4OC)c3)cc2C(F)(F)F)CC1	SRC	binding, competition with immobilised ligand		1 µM		remaining binding	0.3%
C[C@H]1CN(C(=O)c2cn(-c3ccnc(N)n3)c3cc(C#CC4(O)CCCCC4)ccc23)CCN1	SRC	enzyme activity, inhibitor, FRET		1 µM		inhibition	2%
Cc1ccc(C(=O)Nc2ccc(CN3CCN(C)CC3)c(C(F)(F)F)c2)cc1C#Cc1cnc2cccnn12	SRC	target engagement, NanoBRET	human cells			Hill slope	-12.2
COc1c(Cl)cccc1Nc1c(-c2ccncc2C#C[C@@]2(C)CCCN2C(=O)/C=C/CN(C)C)[nH]c2c1C(=O)NCC2	SRC	cell-free assay, competition with immobilised ligand		3 µM		remaining binding	100%
Nc1ncc2c(n1)-c1c([nH]c3ccc(C4=CCOCC4)cc13)CCC2	SRC	binding, competition with immobilised ligand		1 µM		remaining binding	93%
Cc1cccc(-c2ccc3nc(NC(=O)C4CCOCC4)nn3c2)c1	SRC	enzyme activity, Dundee kinase panel		10 µM		remaining activity	93%
NC(=O)C[C@H]1CCc2sc3ncnc(O[C@H]4CC[C@H](N5CCOCC5)CC4)c3c21	SRC	enzyme activity, inhibitor		10 µM		inhibition	22%
C=CC(=O)Nc1cccc(-c2cnc3[nH]cc(C(=O)NC(C)(C)C)c3n2)c1	SRC	enzyme activity, inhibitor		0.1 µM		inhibition	12%
Cc1[nH]nc2c1N=C(c1ccccc1Cl)c1cnc(N3CCOCC3)cc1N2	SRC	enzyme activity, inhibitor		0.5 µM		inhibition	29.7%
Cc1cnc2nc1Nc1cccc(c1)COC/C=C/COCc1cc(ccc1OCCN1CCOCC1)N2	SRC	binding, competition with immobilised ligand		0.1 µM		remaining binding	33%
Nc1ncc(-c2cc(-c3cnn(CC(F)(F)F)c3)ncc2F)nc1C(=O)NC1CNCC(F)C1 (centres unmarked)	SRC	enzyme activity		1 µM	reference: DMSO control	remaining activity	77.5%
Cc1ccc(-c2c(/C=C(\C#N)C(=O)NC(C)C)n(CCCO)c3ncnc(N)c23)cc1	SRC	cell-free assay, competition with immobilised ligand		1 µM		remaining binding	71%
Cc1cccc(-c2ccc3nc(NC(=O)C4CCCCC4)nn3c2)c1	SRC	enzyme activity, Dundee kinase panel		10 µM		remaining activity	88%
CN1CCN(c2ccc(Nc3ncc(Cl)c(Nc4ccccc4P(C)(C)=O)n3)cc2Br)CC1	SRC	enzyme activity, inhibitor		0.1 µM		inhibition	71.7%
COc1ccc(NC(=O)Nc2ccc3c(c2)C(=O)N(C(C)CO)CC(C)C(CN(C)Cc2ccc4c(c2)OCO4)O3)cc1 (centres unmarked)	SRC	kinase activity		0.03 µM, residues 1-530	reference: control	remaining activity	97%
CNC(=O)C1CCN(c2cc(C)c(F)cc2NC(=O)c2ccc(-c3cc(O)ccc3C)c(C)c2)CC1	SRC	binding, competition with immobilised ligand		1 µM		remaining binding	0.1%

Repeated from above:
Compound	target	assay	system	conditions	scale	endpoint	result
COc1c(Cl)cccc1Nc1c(-c2ccncc2C#C[C@@]2(C)CCCN2C(=O)/C=C/CN(C)C)[nH]c2c1C(=O)NCC2	SRC	cell-free assay, competition with immobilised ligand		3 µM		remaining binding	100%
